Experimental data pooled from the literature.
Every numbered part comes from another study and shows a few of its results, in no order. Substitutions count along the parent as printed.

Block 1 — method: protein-binding microarray; form: double-stranded DNA, one strand shown; matrix: in vitro; concentration: 2540 nM top; setting: 60-bp whole probe; together with: salmon DNA 0.4 mg/ml; relative to: random background probes; direction: higher = stronger binding; shared flanks, not repeated: GCCTAGCAC … GTCTTGATTCGCTTGACGCTGCTG
Target: Interferon regulatory factor 3, full length, phosphomimetic (IRF3, Homo sapiens, UniProt Q14653, residues 1-427, S386D/S396D/S398D/S402D/T404D/S405D)
Residues (chain): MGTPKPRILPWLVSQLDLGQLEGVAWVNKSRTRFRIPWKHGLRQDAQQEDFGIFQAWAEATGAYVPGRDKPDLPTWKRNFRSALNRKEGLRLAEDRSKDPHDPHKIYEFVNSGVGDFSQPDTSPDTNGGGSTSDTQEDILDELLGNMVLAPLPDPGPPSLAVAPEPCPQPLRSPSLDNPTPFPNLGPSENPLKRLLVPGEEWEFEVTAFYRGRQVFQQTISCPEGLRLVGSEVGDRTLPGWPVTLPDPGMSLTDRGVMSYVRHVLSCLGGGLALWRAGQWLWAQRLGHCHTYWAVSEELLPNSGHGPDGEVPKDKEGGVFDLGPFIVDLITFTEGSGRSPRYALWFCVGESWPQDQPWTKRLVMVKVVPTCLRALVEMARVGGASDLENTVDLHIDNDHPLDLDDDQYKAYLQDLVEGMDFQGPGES
| Strand | fitted relative affinity [z-score] |
| --- | --- |
| GTATATATGTGTATATATAAGTGCTAG | 0.444 |
| TCAGTTGTAGTTTTCATACTGTGCTAG | 3.3 |
| GACGGTATCAGGTATCGGGACGTGCTA | 2.21 |
| TTAGGTTTCGGTTTCGGGTAGTGCTAG | 11.4 |
| AATATTATAACACTCTTCTTGTGCTAG | 0.699 |
| TCACCTCTCTGTCCCCCACTGTGCTAG | 0.726 |
| GACGGGATCGGGTATCGGGACGTGCTA | 0.226 |
| GACGGAATGGGGTTTCGGGACGTGCTA | 1.03 |
| GACGGCTTCCTACTGCTGACGTGCTAG | -0.336 |
| GACGGTTTAGGGTTTCGGGACGTGCTA | 1.53 |
| TACGGTTTCGGTTTCGGGACGTGCTAG | 10.1 |

Block 2 — method: protein binding microarray; form: double-stranded DNA, one strand shown; matrix: in vitro; concentration: not given; relative to: not given; direction: higher = stronger binding
Target: Histone acetyltransferase KAT6A, both winged helices, GST fusion (KAT6A, Homo sapiens, UniProt Q92794, residues 1-181)
Setting: 8-mer, flanks averaged, mean of 2 arrays, mostly near background
Construct (chain): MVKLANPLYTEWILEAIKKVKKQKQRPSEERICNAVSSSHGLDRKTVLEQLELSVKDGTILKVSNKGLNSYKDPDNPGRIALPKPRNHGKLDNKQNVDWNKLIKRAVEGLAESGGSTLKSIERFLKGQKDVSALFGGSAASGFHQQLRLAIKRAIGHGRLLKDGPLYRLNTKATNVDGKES
| Strand | E-score |
| --- | --- |
| AGAACCAG | -0.0303 |
| GATTGCCC | -0.0527 |
| AGCCGCTA | 0.233 |
| CTCAGCTA | -0.128 |
| CTTCGGTC | 0.0262 |
| ACATTAGT | -0.158 |
| ACATCAAA | -0.206 |
| AATAGCAT | -0.184 |
| ACCCGAAG | 0.0148 |
| CGGATAAG | 0.169 |
| ACGAAAGT | -0.0512 |
| CCTACTCA | -0.0994 |
| GTGTAGCA | -0.0794 |
| AGCTTACG | 0.12 |
| GAGGAGGC | -0.0585 |
| AGCCGCAA | 0.111 |
| TCGGCCGA | 0.287 |
| TGAATTAA | -0.0623 |
| CCGTGTCG | 0.241 |

Block 3 — method: aptamer microarray, sandwich; form: DNA with 2'F-ANA; matrix: in vitro; concentration: 200 nM; together with: Cy3 exosite-II aptamer, 400 nM; direction: higher = stronger binding; strand: GGTTGGTGTGGTTGG
Target: Prothrombin, mature alpha-thrombin (F2, Homo sapiens, UniProt P00734)
Setting: whole 15-mer aptamer, many near background
| Modification | mean fluorescence intensity [a.u.] |
| --- | --- |
| 2'F-ANA at 1 2 3 4 6 7 8 10 12 14 | 56.2 |
| 2'F-ANA at 1 2 3 4 5 6 9 11 12 | 143 |
| 2'F-ANA at 1 2 3 4 8 9 12 13 | 256 |
| 2'F-ANA at 4 7 8 10 13 14 | 60.9 |
| 2'F-ANA at 2 4 11 | 299 |
| 2'F-ANA at 3 8 10 11 12 13 | 547 |
| 2'F-ANA at 1 2 9 10 11 15 | 67.9 |
| 2'F-ANA at 1 2 3 4 9 13 14 15 | 58.2 |
| 2'F-ANA at 1 2 7 8 9 12 14 | 72.1 |
| 2'F-ANA at 3 4 5 7 8 9 14 15 | 82.7 |
| 2'F-ANA at 4 6 8 9 10 11 12 14 15 | 57.1 |
| 2'F-ANA at 2 3 5 9 10 11 12 15 | 61.3 |

Block 4 — method: RNA Bind-n-Seq; form: RNA; matrix: in vitro; concentration: 20 nM; setting: 6-mer, flanks averaged, single round; together with: 150 mM KCl; relative to: input library; direction: higher = stronger binding
Target: TAR DNA-binding protein 43, full length, His tag (TARDBP, Homo sapiens, UniProt Q13148, residues 1-414)
| Strand | 6-mer enrichment (R) |
| --- | --- |
| CGAUUA | 0.555 |
| CUCGUU | 0.541 |
| UUCACC | 0.599 |
| GUACUC | 0.615 |
| AAGUAG | 0.862 |
| CCGCUU | 0.613 |
| AGUAUC | 0.596 |
| CAGCUU | 0.615 |
| AAAUUU | 0.656 |
| AUGGAU | 0.829 |
| UGCGAU | 0.764 |
| AUGAGU | 1.03 |
| CUUUGA | 0.626 |
| CCUGGU | 0.772 |
| AACCUC | 0.57 |
| CUGUCA | 0.606 |
| AGGGGU | 3.73 |

Block 5 — target: CCNA1, cyclin fold, Cln2 fusion (human); method: yeast growth competition, sequencing; matrix: yeast; setting: weak parent motif; relative to: not given; direction: higher = stronger binding
Starting sequence: MICAL3 docking peptide (human); LQLRRQLSFSEDS
| Variant | normalised enrichment score |
| --- | --- |
| R5P | 0.224 |
| L3C | 1.49 |
| L3S | 0.807 |
| R5V | 0.387 |
| S10C | 0.649 |
| R4I | 0.331 |
| S8P | 0.165 |
| Q6N | -0.0952 |
| S8M | 0.66 |
| Q6I | 0.102 |
| E11R | 0.56 |
| S8Q | 0.78 |
| S8G | 0.293 |
| E11G | 0.545 |
| L3A | 1.53 |
| L7M | 0.39 |

Block 6 — method: RNA Bind-n-Seq; form: RNA; matrix: in vitro; concentration: not given; relative to: input RNA pool; direction: higher = stronger binding
Target: RING finger protein unkempt homolog, zinc fingers 1-6, GST-SBP tag (UNK, Homo sapiens, UniProt Q9C0B0, residues 30-357)
Setting: RNA with constant flanks, human and mouse sites, ends assumed
Target sequence (chain): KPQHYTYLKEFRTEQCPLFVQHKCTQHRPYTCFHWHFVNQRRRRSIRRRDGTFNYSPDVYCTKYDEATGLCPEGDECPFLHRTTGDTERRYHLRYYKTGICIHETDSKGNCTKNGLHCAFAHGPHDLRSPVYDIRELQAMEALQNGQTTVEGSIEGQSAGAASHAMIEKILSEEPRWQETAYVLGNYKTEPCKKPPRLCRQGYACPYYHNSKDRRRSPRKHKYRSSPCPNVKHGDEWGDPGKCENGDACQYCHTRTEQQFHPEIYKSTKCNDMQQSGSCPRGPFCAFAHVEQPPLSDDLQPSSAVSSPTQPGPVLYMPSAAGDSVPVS
| Strand | bound/input enrichment [ratio] |
| --- | --- |
| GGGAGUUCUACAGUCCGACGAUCCUCAACACGGUGAAGCAGAAGCUCUUCACCGAGGUGGAGGGGACCUGCACAGGGAAGUAUGGCUUUGUAAUUGCUGUCACCACCAUUGACAAUAUUGGUGCUGGUGUGAUCCAGCCAGGCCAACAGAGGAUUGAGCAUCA | 0.0766 |
| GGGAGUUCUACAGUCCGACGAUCUAUAAAAGGCGACACAAUCUUGACAACCUCUUACAGCAGCAUAAACAGAAAACUUCACGAAAACCUCGUGAAGAGCGAGAUGUGUCUCAAUGUGAAAGUGUCGCUUCCACUGUUUCUGCUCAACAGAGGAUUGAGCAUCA | 0.215 |
| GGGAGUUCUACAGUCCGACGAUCAUGAUCCAACUCAAUGGAUGUCAGCCCAUGGAGAUCAAAGUGCUGGGUCCUUAUACCUUUAGUAUCUGUGACACUUCCAACUUCUCUGACUACAUCCGUGGAGGCAUCGUCAGUCAGGUCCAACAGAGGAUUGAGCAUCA | 0.0927 |
| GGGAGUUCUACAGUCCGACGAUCACCUCUCUAGUAUGUUCUGUGACUCUGCUCAUUACAAUCCUGUGCUCUACAUUGAUCCUUGUAGCAGUUUUCAAAUAUGGCCAUUUUUCCCUAUAAGUUUUAUGUAGUUAAAUGCUUCCUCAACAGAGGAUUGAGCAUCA | 4.15 |
| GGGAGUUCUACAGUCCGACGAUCUAUGCUUUGGACACACUUUAUAAUAUAAUAUCUAAUGACGAAGAGGAAGAACUAGAAGAAAAUUCUACAAGACAGAGUGAGGAUUUGGGAAGCCAGUUUACAGAAAUUUUCAUUAAGCAGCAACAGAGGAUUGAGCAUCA | 0.864 |
| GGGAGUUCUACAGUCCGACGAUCUCCUCUUGCCUUUUCUUGCCUCGGUUGAAUACUUAACUAAGCUGUGUGCUUGUUGAUCUAUGUAUUCUGACUUCACUUGAGUACCACCCACCUUUUCUUUUAAAGUAAUUCAGUAAGUAACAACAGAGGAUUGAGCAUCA | 0.481 |
| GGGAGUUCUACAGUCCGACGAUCUACAUUUACAAAGCCAUUUUACAUGCAUUAAAAGAGGGCUACAAUGUGUUUUACAAAUACUAGCACUUUUUUUUCCUGUUAUGUACCUAGUGUUAGAGGGUCAGAAUAAUCUUUCUGCUUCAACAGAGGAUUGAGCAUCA | 0.288 |
| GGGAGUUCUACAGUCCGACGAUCUUGAUUCAUAGGGAUAUUAAAGCAGGAAAUAUUCUUCUAACAGAGCCAGGUCAGGUAAAACUAGCUGAUUUUGGAUCUGCUUCAAUGGCUUCUCCUGCCAACUCCUUCGUGGGCACACCUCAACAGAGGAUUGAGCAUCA | 0.0746 |
| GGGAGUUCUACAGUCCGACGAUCGCAAUGACAAUUUCCUAAGAUAACUGAAAUGAACAGUGAAGAAACUGUGCUCAUAAAUCAGUACAUAAAGAUUACUUCCUAGGACUUUUAUUUCCCAUUAGUAUUAUUUAUUAUUCAAGGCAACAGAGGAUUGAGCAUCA | 121 |
| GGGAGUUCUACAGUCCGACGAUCAGUUUCUCCAGAGGAAGCAAUCAAAUGUGAGGACAAAUUCACAAAAUCCAAAACUGUUUAUAGCAUUCUUCGCCAUGUUGCUGAGGUAUUAGAAUAUACCAAGGAUGAGCAGCUGGAGAGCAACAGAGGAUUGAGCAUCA | 0.177 |
| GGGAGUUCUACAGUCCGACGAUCAAAAUUUUUGCCUUUGCCAACUCACUAGUGGAACUUCUGGCUGUGGGGUUAGAAACCUUUAAUAGAGCACGCUAUAGGCAGUUUGUGAAGCGAAUUGGUUAUAUGAUCAGGAUGACUCUUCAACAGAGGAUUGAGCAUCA | 0.809 |

A few entries again (block 5):
| Variant | normalised enrichment score |
| --- | --- |
| R4I | 0.331 |
| S8P | 0.165 |
| Q6N | -0.0952 |
| S8M | 0.66 |
| Q6I | 0.102 |
| E11R | 0.56 |
| S8Q | 0.78 |
